Experimental data from different studies.
Numbered parts are unrelated; each lists some results of a single study.

Block 1
Target: Histone acetyltransferase KAT6A, both winged helices, GST fusion (KAT6A, Homo sapiens, UniProt Q92794, residues 1-181)
Technique: protein binding microarray
Molecule type: double-stranded DNA, one strand shown
Medium: in vitro
Concentration: not given
Setting: 8-mer, flanks averaged, mean of 2 arrays, mostly near background
Reference: not given
Reading: higher = stronger binding
Target sequence (chain): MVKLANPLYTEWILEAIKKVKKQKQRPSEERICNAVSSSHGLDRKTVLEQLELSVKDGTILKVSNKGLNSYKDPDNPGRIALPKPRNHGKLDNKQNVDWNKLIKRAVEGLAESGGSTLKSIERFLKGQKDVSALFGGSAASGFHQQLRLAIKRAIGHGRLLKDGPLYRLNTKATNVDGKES
Sequence | E-score
TATCAGAA | 0.0222
CGGCGCCA | 0.305
GTTGTCGA | -0.132
GACAACAA | -0.187
TGAATCCA | -0.115
AGTCACCA | -0.177
ATCTGTCA | -0.108
CGGAGCCG | 0.304

Block 2
Target: Prothrombin, mature alpha-thrombin (F2, Homo sapiens, UniProt P00734)
Technique: aptamer microarray, sandwich
Molecule type: DNA with 2'F-ANA
Medium: in vitro
Concentration: 200 nM
Setting: whole 15-mer aptamer, many near background
Added: Cy3 exosite-II aptamer, 400 nM
Reading: higher = stronger binding
Sequence: GGTTGGTGTGGTTGG
Modification | mean fluorescence intensity [a.u.]
2'F-ANA at 4 5 6 12 13 14 15 | 56.7
2'F-ANA at 1 3 4 5 8 11 13 14 | 52.9
2'F-ANA at 2 5 6 9 10 14 | 48.9
2'F-ANA at 1 3 4 8 14 15 | 80.2
2'F-ANA at 1 3 6 8 12 13 14 | 122
2'F-ANA at 1 2 3 4 5 6 9 11 12 13 14 | 48.5
2'F-ANA at 1 2 3 5 6 7 8 10 11 12 13 14 15 | 51.3
2'F-ANA at 3 4 8 9 10 11 12 | 373

Block 3
Target: RNA binding protein fox-1 homolog 2, RRM domain, GST-SBP tag (RBFOX2, Homo sapiens, UniProt O43251-10, residues 100-194)
Technique: RNA Bind-n-Seq
Molecule type: RNA
Medium: in vitro
Concentration: 365 nM
Setting: natural RNA segment, single round, ends assumed
Reference: no-protein control
Reading: higher = stronger binding
Sequence | RBNS enrichment (R)
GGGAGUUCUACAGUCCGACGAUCUGACUUAUGUGGUAAAAUGUUUGAGAGUUUGCACUCAAUUUUAAAGAAUUUGCAGUUUCUAACAAGGUGAAGAACAGCUAUAGGAUCUAAAGUUCCAUUACAGCUUACUGUGGAAUUCUCGGGUGCCAA | 0.46
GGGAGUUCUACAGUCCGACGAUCCUGCUGCCUAUUUCCAGCCAGCGGCUGCAUGGUUUGAAGUUCCUCCGUUGUGGUCAGAGGAACUCUGGUGUUUGGUUCCCUGCUCAGCUGCGCGUGGACUGGGCUGAGCUUGGAAUUCUCGGGUGCCAA | 6.15
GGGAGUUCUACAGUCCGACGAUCAAAAAAAUGAUUUGCUCUUUGUGAACACACAAUUAUGAAUUUCAUGGCGAUGUUAACAAUUCUGCAUUUAGACAAGGUUUUGCAAAAGAUAUUGUGUUAGAAAAAUUUGAUGGAAUUCUCGGGUGCCAA | 0.585
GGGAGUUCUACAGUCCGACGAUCCGCUUUUUGUUGUUGUUGGUUUUCUUAACCCCUUUAAUGGAACUGCCUGGAUUUUAUACAGUUAUUAAAGGAUGUCUCUUUUGCUUUAAACUGCAUGCUGCCAAGUGCCAUGGAAUUCUCGGGUGCCAA | 2.22
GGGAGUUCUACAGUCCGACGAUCAGAUUUACAGCUUAUGCUAGGCCCACCCAACUGGACAAGGCUGUCUCCUGUCUUCUACUACCCUGGCUCAGCCCCCACCUCUGCCCCUGAAAUGCGUGCUCCCACCAAGGUGGAAUUCUCGGGUGCCAA | 1.28
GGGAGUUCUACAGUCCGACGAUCGGCAUGGUAUAUUAAAAUGAUUUUACUAAGAGAAAAAAUAUUUUUUUAAGAAUGCUCAGAAGAAAUUGAUAAUCUGUGUGAAUAUGUUUUAGAUGUUUAUAUACCUUUUGUGGAAUUCUCGGGUGCCAA | 6.45
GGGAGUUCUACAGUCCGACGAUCCCACCCCUGAAUAGCAUGUUUCUCCCCCAUGGCACAAGGCAGGUGAAGCCCGUGCUCCCUGGAAGCCCUCACCUUCCACAGACAACAGAGAUUUCCUGCUAGAGGAAAGGUGGAAUUCUCGGGUGCCAA | 5.64

Single results of other studies
Substance | target | assay | system | conditions | how to read | endpoint | value
PhoQ, residues 284 288 289 292 302 303 DDMDFR | PhoP, residues 12 14 15 18 19 TPLRH (Escherichia coli, UniProt P23836) | Sort-seq, measured: YFP reporter | E. coli | PhoQ-PhoP variant library, added: 10 µM Mg2+ | reference: high Mg2+ state, higher = stronger signaling | fold induction | 0.892

Excerpt of the above (block 2):
Modification | mean fluorescence intensity [a.u.]
2'F-ANA at 2 5 6 9 10 14 | 48.9
2'F-ANA at 1 3 4 8 14 15 | 80.2
2'F-ANA at 1 3 6 8 12 13 14 | 122
